{"data": "Measured values collected from several papers", "CYP2D6": "Cytochrome P450 2D6 (CYP2D6, Homo sapiens, UniProt P10635)", "KCNH2": "Voltage-gated inwardly rectifying potassium channel KCNH2 (KCNH2, Homo sapiens, UniProt Q12809)", "note": "Compare with care: the assays were run in different laboratories. ± marks the error that the study gave.", "chain of UniProt P10635 (whole entry, looked up)": "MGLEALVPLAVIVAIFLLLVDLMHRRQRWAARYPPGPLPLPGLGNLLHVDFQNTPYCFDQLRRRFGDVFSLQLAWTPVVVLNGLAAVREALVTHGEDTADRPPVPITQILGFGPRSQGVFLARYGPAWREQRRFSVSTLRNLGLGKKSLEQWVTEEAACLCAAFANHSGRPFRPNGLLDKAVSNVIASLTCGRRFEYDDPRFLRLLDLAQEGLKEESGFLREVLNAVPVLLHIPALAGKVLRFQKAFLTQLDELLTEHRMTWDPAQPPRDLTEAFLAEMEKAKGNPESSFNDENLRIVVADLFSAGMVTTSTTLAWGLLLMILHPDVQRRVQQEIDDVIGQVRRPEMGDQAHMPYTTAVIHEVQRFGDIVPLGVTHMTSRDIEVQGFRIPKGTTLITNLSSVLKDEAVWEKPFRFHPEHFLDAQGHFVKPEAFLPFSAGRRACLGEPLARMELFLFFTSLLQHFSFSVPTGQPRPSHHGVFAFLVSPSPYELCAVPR", "chain of UniProt Q12809 (whole entry, looked up)": "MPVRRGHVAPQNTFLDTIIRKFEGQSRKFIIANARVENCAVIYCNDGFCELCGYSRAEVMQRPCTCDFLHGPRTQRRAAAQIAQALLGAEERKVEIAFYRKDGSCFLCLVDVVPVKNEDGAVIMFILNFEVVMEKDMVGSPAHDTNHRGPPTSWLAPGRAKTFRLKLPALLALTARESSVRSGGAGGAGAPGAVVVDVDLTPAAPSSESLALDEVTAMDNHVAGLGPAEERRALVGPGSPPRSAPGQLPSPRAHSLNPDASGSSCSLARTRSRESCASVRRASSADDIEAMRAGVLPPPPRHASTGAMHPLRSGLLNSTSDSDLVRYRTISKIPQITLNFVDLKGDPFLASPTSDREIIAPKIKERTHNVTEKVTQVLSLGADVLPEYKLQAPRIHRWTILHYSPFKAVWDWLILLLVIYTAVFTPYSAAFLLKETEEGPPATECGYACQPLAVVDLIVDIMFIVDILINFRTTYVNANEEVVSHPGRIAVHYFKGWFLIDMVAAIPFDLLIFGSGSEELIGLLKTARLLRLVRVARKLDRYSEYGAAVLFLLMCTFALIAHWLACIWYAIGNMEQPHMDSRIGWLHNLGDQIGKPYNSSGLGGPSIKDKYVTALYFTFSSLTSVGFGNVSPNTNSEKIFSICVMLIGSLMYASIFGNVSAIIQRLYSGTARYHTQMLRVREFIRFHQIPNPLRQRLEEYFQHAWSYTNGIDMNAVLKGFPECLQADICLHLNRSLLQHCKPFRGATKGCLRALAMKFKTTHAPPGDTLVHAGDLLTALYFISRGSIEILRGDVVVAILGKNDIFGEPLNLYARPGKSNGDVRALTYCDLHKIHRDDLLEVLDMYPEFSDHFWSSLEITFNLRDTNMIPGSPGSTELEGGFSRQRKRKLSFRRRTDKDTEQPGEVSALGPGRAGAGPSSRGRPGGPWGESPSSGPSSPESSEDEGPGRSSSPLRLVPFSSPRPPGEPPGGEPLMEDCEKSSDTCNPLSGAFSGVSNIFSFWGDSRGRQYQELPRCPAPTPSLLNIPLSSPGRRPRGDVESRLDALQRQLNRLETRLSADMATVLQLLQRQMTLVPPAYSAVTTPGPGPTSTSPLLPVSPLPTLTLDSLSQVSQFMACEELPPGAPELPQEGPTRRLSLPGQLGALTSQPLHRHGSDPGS", "chain of UniProt P15735 (whole entry, looked up)": "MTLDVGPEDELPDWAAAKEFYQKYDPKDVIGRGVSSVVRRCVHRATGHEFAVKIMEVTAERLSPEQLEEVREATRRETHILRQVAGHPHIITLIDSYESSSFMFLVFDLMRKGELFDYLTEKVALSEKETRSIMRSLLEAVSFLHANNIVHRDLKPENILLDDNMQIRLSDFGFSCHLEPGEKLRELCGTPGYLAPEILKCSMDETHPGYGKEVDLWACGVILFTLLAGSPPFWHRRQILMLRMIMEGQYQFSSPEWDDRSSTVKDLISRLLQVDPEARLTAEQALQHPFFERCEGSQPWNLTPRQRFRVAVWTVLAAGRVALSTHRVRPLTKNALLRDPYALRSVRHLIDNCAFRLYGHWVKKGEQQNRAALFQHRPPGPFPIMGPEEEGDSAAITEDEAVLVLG", "chain of UniProt P51589 (whole entry, looked up)": "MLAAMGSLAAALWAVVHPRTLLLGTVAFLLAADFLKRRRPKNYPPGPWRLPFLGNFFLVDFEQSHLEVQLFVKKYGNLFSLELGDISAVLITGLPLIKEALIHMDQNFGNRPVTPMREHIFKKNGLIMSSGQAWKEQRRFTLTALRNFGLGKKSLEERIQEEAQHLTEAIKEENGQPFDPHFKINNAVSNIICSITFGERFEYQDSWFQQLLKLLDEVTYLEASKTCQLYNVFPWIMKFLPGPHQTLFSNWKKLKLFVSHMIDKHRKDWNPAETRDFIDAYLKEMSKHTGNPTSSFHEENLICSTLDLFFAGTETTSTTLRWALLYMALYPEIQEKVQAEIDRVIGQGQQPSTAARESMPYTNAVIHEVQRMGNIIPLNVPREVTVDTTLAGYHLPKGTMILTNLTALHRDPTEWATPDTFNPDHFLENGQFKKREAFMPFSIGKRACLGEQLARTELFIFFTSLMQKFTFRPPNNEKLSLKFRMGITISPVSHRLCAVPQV", "chain of UniProt P00729 (whole entry, looked up)": "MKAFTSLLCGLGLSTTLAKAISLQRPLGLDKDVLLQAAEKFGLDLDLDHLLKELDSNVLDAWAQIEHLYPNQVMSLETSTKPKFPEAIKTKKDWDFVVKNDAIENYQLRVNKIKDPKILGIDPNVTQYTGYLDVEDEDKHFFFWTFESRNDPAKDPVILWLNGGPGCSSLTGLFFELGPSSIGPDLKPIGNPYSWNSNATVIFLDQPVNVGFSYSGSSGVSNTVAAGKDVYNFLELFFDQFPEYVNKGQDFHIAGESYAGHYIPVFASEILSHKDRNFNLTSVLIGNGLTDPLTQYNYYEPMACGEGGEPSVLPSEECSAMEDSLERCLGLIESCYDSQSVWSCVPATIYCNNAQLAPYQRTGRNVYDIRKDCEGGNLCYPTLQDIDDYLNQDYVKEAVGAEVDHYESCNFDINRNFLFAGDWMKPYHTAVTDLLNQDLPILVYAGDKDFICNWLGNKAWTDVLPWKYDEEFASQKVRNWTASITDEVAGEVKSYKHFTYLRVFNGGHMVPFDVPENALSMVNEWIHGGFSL", "chain of UniProt Q8TCC7 (whole entry, looked up)": "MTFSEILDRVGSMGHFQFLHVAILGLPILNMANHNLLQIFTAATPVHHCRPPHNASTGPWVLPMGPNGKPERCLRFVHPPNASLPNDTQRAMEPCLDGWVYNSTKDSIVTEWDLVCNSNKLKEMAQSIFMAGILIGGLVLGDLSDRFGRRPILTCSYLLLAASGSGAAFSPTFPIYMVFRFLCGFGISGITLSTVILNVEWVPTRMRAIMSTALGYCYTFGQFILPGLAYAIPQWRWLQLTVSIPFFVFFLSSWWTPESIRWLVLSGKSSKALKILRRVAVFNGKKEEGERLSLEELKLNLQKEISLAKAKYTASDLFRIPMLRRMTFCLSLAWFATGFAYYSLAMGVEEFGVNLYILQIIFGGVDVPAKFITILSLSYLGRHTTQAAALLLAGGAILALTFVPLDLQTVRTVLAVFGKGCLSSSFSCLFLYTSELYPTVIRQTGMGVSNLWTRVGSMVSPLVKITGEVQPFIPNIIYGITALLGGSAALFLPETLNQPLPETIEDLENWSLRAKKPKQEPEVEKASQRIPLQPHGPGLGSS"}
{"SMILES": "O=C(CN1C(=O)C2(CCN(C(=O)c3cnc4[nH]ncc4c3)CC2)c2c(Br)cccc21)NCC(F)(F)F", "target or system": "CYP2D6", "test": "enzyme activity, inhibitor", "quantity": "IC50", "value": "2 µM"}
{"SMILES": "CS(C)(=O)=Nc1ccc(-c2ccc(-c3nc4cc(O[C@@H]5CO[C@H]6[C@@H]5OC[C@H]6O)[nH]c4cc3F)cc2)cc1", "target or system": "Phosphorylase b kinase gamma catalytic chain, liver/testis isoform (PHKG2, Homo sapiens, UniProt P15735)", "test": "enzyme activity, inhibitor", "setting": "10 µM", "quantity": "inhibition", "value": "-5%"}
{"SMILES": "CC(C)C[C@H](NC(=O)[C@H](CC(C)C)NC(=O)[C@H](CCCCN)NC(=O)[C@H](Cc1ccccc1)NC(=O)[C@@H](NC(=O)[C@H](CCCNC(=N)N)NC(=O)[C@@H](N)CCCCN)C(C)C)C(=O)N[C@@H](CCCCN)C(=O)N[C@@H](CCCNC(=N)N)C(=O)N[C@@H](Cc1ccc(O)cc1)C(=O)N[C@@H](Cc1c[nH]c2ccccc12)C(=O)N[C@@H](CCCNC(=N)N)C(=O)N[C@@H](CCC(N)=O)C(=O)N[C@@H](CC(C)C)C(=O)N[C@@H](CCCCN)C(=O)N[C@@H](CCCCN)C(=O)N1CCC[C@H]1C(=O)N[C@H](C(=O)N[C@@H](CCCNC(=N)N)C(=O)NCCOCCOCC(=O)O)C(C)C", "target or system": "trypsin or chymotrypsin", "setting": "0 to 6 h, 37 °C, together with: protease ratio 50:1", "quantity": "MIC after protease incubation", "value": "no effect"}
{"SMILES": "C[C@@H](c1ccc2nccn2c1)n1nnc2ncc(-c3cn[nH]c3)nc21", "target or system": "CYP2D6", "test": "enzyme activity, inhibitor", "test system": "human, liver microsomes", "quantity": "IC50", "value": "27 µM"}
{"SMILES": "CC[C@H](C)[C@@H]1NC(=O)[C@H](CC(C)C)NC(=O)[C@@H](NC(=O)[C@H](CCCNC(=N)N)NC(=O)[C@@H](NC(=O)CNC(=O)[C@@H]2CCCN2C(=O)[C@@H]2CCC(=O)NCC(=O)N[C@@H](CO)C(=O)N[C@@H](CCCNC(=N)N)C(=O)NCC(=O)N[C@@H](Cc3c[nH]c4ccccc34)C(=O)NCC(=O)N[C@@H](Cc3ccccc3)C(=O)N2)C(C)C)CSSC[C@@H](C(=O)N[C@@H](CC(=O)O)C(=O)O)NC(=O)[C@H](Cc2c[nH]c3ccccc23)NC1=O", "target or system": "Carboxypeptidase Y (Saccharomyces cerevisiae, UniProt P00729)", "test": "substrate, LC-MS", "setting": "20 h, room temperature", "quantity": "proteolytic stability", "value": "stable"}
{"SMILES": "CN[C@@H]1[C@H](O)[C@H](NC)[C@H]2O[C@]3(O)[C@H](O[C@@H]2[C@H]1O)O[C@H](C)C[C@H]3NC(=O)Cc1cc(Cl)ccn1", "target or system": "KCNH2", "setting": "10 µM", "quantity": "inhibition", "value": "-2%"}
{"SMILES": "C/C(=N\\OCCCN1CCCCC1)c1ccc(C(F)(F)F)cc1", "target or system": "KCNH2", "test": "ion current, antagonist, automated patch clamp", "setting": "10 µM", "quantity": "inhibition", "value": "76.2%"}
{"SMILES": "COc1ccccc1-c1n[nH]c2nc(NC3CCN(C(=O)Cc4ccc(F)cc4F)CC3)ncc12", "test": "bead binding, competition bead pull-down, measured: LINJ.10.0330", "test system": "Leishmania donovani axenic amastigote extract", "setting": "10 µM", "how to read": "baseline: vehicle", "quantity": "relative abundance", "value": 0.96}
{"SMILES": "CC(C)[C@H]1NC(=O)C[C@H]2/C=C/CCSSC[C@@H](NC1=O)C(=O)N[C@H](Cc1cccc3ccccc13)C(=O)NCC(=O)O2", "target or system": "Hepatocyte growth factor receptor (MET, Homo sapiens, UniProt P08581, Y1235D)", "test": "enzyme activity, inhibitor", "setting": "10 µM", "quantity": "inhibition", "value": "-2.2%"}
{"SMILES": "CCN(CC)CCOc1ccc(-c2nnn(Cc3ccc(OC)cc3)c2N)cc1", "target or system": "Cytochrome P450 2B6 (CYP2B6, Homo sapiens, UniProt P20813)", "test": "inhibitor", "quantity": "IC50", "value": "> 50 µM"}
{"SMILES": "O=C1NC(=O)c2c1c1cc(F)c[n+]3c1c1c2c2cc(O)ccc2[n]1[Ru-4]312([N]=C=S)[S+]3CC[S+]1CC[S+]2CC3 (stereo not drawn)", "target or system": "Epidermal growth factor receptor (EGFR, Homo sapiens, UniProt P00533)", "test": "enzyme activity", "setting": "100 nM, human enzyme, together with: 10 µM ATP", "how to read": "baseline: untreated", "quantity": "remaining activity", "value": "114%"}
{"SMILES": "CC(C)C[C@H](NC(=O)CNC(=O)[C@@H]1CCCN1C(=O)[C@@H](NC(=O)[C@@H](NC(=O)CCC(=O)O)C(C)C)C(C)C)C(=O)N[C@@H](CCCCN)C(=O)N1CCC[C@H]1C(=O)N[C@@H](Cc1ccccc1)C(=O)N[C@H](C(=O)N[C@@H](CCCCN)C(=O)NCC(=O)NCC(=O)N[C@@H](Cc1ccc(O)cc1)C(=O)NCC(=O)N[C@@H](CCCNC(=N)N)C(=O)N[C@@H](CCCCN)C(=O)N[C@@H](CCCCN)C(=O)N[C@@H](CCCNC(=N)N)C(=O)N[C@@H](CCCNC(=N)N)C(=O)N[C@@H](CCC(N)=O)C(=O)N[C@@H](CCCNC(=N)N)C(=O)N[C@@H](CCCNC(=N)N)C(=O)N[C@@H](CCCNC(=N)N)C(N)=O)C(C)C", "target or system": "trypsin (pig)", "test": "substrate, RP-HPLC", "test system": "Tris buffer", "setting": "2.5 mg/mL, 0.1667 h, pH 8.0, 37 °C", "quantity": "degradation", "value": "~30%"}
{"SMILES": "Cc1cc(-c2ccc3ccccc3c2)nnc1NCCN1CCN(C)CC1", "target or system": "Cytochrome P450 2J2 (CYP2J2, Homo sapiens, UniProt P51589)", "test": "substrate", "test system": "recombinant enzyme", "setting": "1000 nM", "quantity": "half-life", "value": "> 30 min"}
{"SMILES": "CC(C)C[C@H](NC(=O)[C@H](C)NC(=O)CNC(=O)CCCCCN1C(=O)[C@@H]2[C@H](C1=O)[C@H]1C=C[C@@H]2C1)C(=O)N[C@H](C(=O)N1CCC[C@H]1C(=O)N[C@@H](CCCNC(=N)N)C(=O)NCC(=O)N[C@@H](C)C(=O)N[C@@H](CC(=O)O)C(=O)N[C@@H](CO)C(=O)NCC(=O)N[C@@H](CO)C(=O)NCC(N)=O)[C@@H](C)O", "target or system": "α-chymotrypsin", "test": "substrate, HPLC", "test system": "DPBS", "setting": "200 µM, 50 min, 37 °C, together with: chymotrypsin 1.0 µM", "quantity": "cleavage", "value": "44%"}
{"SMILES": "CC(=O)NCCCC[C@@H]1NC(=O)[C@H](Cc2c[nH]c3c(C)cccc23)NC(=O)[C@H]([C@@H](C)O)NC(=O)[C@H](CC(N)=O)NC(=O)[C@@H](NC(C)=O)C(C)(C)SSC(C)(C)[C@@H](C(=O)N[C@@H](Cc2ccc(OCCN)cc2)C(=O)N[C@@H](Cc2ccc3ccccc3c2)C(=O)NC2(C(=O)N[C@@H](CCC(=O)O)C(=O)N[C@@H](CC(N)=O)C(=O)N[C@@H](Cc3cccnc3)C(=O)N(C)CC(N)=O)CCOCC2)NC1=O", "target or system": "Organic anion transporter 3 (SLC22A8, Homo sapiens, UniProt Q8TCC7)", "test": "substrate", "test system": "MDCK-II overexpressing transporter", "setting": "5 µM, 30 min", "quantity": "uptake rate", "value": "0.432 ± 0.063 pmol/mg/min"}
{"SMILES": "O=C(CN1C(=O)C2(CCN(C(=O)c3cnc4[nH]ncc4c3)CC2)c2c(F)cccc21)NCC(F)(F)F", "target or system": "CYP2D6", "test": "enzyme activity, inhibitor", "quantity": "IC50", "value": "9.6 µM"}
{"SMILES": "CC(C)CC(O)(CC(C)C)c1cn(C(=O)N2CCCC2)nn1", "target or system": "Platelet-activating factor acetylhydrolase IB subunit alpha2 (Mus musculus, UniProt Q61206)", "test": "probe labelling, inhibitor, measured: Pafah1b2", "test system": "mouse, brain", "setting": "i.p., 0.8 mg/kg, 4 h, protein level", "how to read": "baseline: treated over vehicle mice, lower = stronger inhibition", "quantity": "activity ratio-of-ratios", "value": 1.34}
{"SMILES": "O=C1NC2(CC2)COc2ncc(F)cc2[C@H]2COCCN2c2ccn3ncc1c3n2", "test system": "Sprague-Dawley rat, female, adrenals", "setting": "oral, 10 mg/kg/day, 4 weeks, end of treatment", "quantity": "organ-to-brain weight ratio", "value": "3.6 ± 0.7%"}
